Assay results gathered from unrelated publications.
Lines come from different studies, so protocols differ. ± marks the error that the study gave.

`c1ccc(-c2n[nH]cc2-c2ccnc3ccccc23)nc1` — result for “log2 fold change”: 0.11 (CAK1 (Candida albicans); kinase binding, MIB/MS competition; Candida albicans lysate; 1 µM; baseline: DMSO).
For `C=CC(=O)N1[C@@H](c2ccc3c(c2)OCO3)c2[nH]c3ccccc3c2C[C@H]1C(=O)N1CCN(C)CC1`, the relative co-enrichment was 102% (human cyclin E1 N112C-3xFLAG:CDK2; co-IP with TMT proteomics, refers to: HSPA9; concentration not given, P38646; baseline: wild type DMSO).
For `C[S@@](=N)(=O)c1ccc(C(=O)Nc2cc(-c3ccc(F)cc3)ccc2N)cc1`, inhibition read “no inhibition” (HDAC4, HDAC9, HDAC11; enzyme activity; up to 50 µM).
The remaining binding of `Nc1ncc(-c2cc(-c3cnn(CC(F)(F)F)c3)ncc2F)nc1C(=O)NC1CNCC(F)C1` (stereo not drawn) is reported as 95% (TBK1; KINOMEscan; 1 µM; baseline: DMSO control).
The ΔTm of `NCCCn1cc(COc2cc(C(=O)Nc3cc(OCCN)c4ccccc4n3)nc(C(=O)Nc3cc(OCCN)c4ccccc4n3)c2)nn1` is reported as 18.8 ± 0.6 K (human telomeric G-quadruplex DNA; FRET melting; 1 µM, pH 7.4, with: 60 mM potassium).
`C[n+]1cc(NC(=O)c2ccc3ccc4ccc(C(=O)Nc5cc6ccccc6[n+](C)c5)nc4c3n2)cc2ccccc21` has a delta Tm of 6.9 °C (human telomeric G-quadruplex DNA; UV melting; 6 µM, 100 mM potassium, with: DNA 3 µM).
`CC[C@H](C)[C@H](NC(=O)[C@H](CC(C)C)NC(=O)[C@H](C)NC(=O)[C@H](C)NC(=O)[C@@H]1CCCN1C(=O)[C@@H](NC(=O)[C@H](C)N)C(C)C)C(=O)N[C@@H](CC(C)C)C(=O)N[C@@H](CCCNC(=N)N)C(=O)N[C@@H](CCC(=O)O)C(=O)N[C@@H](CCCCN)C(=O)N[C@@H](CCCCN)C(=O)N[C@@H](CCCCN)C(=O)N[C@@H](CCCCNC(=O)CCCCCNC(=S)Nc1ccc2c(c1)C(=O)OC21c2ccc(O)cc2Oc2cc(O)ccc21)C(N)=O` — result for “log2 fold change”: 8.58 (XIAP (human); DIABLO peptide pull-down; concentration not given, 10-fold competition; baseline: empty beads).
`C=CC(=O)Nc1cccc(Cn2ncc3cnc(Nc4cnn(CCOC)c4)nc32)c1` has a binding of 100% (human PKAC-beta; KINOMEscan; 100 nM; baseline: control).
With `Fc1ccc(Nc2nc(NC3CCCCC3)c3cc(Br)ccc3n2)cc1F` the maximal inhibition was -0.8% (β2AR/β1AR ECL3 chimera; β-arrestin2 recruitment, antagonist, BRET; baseline: isoprenaline maximal response).

Excerpt of the above:
`C=CC(=O)Nc1cccc(Cn2ncc3cnc(Nc4cnn(CCOC)c4)nc32)c1` has a binding of 100% (human PKAC-beta; KINOMEscan; 100 nM; baseline: control).
